Measured values pooled from the literature.
Protocols differ between the studies behind these lines. Numbers after ± are the reported error.

CN1CCN(S(=O)(=O)c2cc([N+](=O)[O-])ccc2N(CCOS(C)(=O)=O)CCOS(C)(=O)=O)CC1 — concentration (NSG mice female, plasma; intraperitoneal, 25 mg/kg, 0.25 h): 9330 nM
C/C(=N\C#N)N(C)Cc1ccc(Cl)nc1 — concentration (soil; 56 days, nominal 0.37): 0.013 mg/kg dry soil
CN(C(=O)n1cnc(-c2ccc[n+]([O-])c2)c1)C1CCCCC1 — concentration (Wistar rat, medulla oblongata; oral, 10 mg/kg, 4 h, single dose): 114 ± 35.8 ng/g
CN(C(=O)n1cnc(-c2ccc[n+]([O-])c2)c1)C1CCCCC1 — concentration (culture medium without cells; 100 nM, 0 h): 90 ± 5 nM
CC(C)[C@@H](CS(=O)(=O)C(C)C)N1C(=O)[C@@](C)(CC(=O)O)C[C@H](c2cccc(Cl)c2)[C@H]1c1ccc(Cl)cc1 — concentration (MALDI-MSI; athymic nude mice, orthotopic PDX, tumour; oral, 25 mg/kg, 2 h after second dose, median): 115 nM
O=C(Nc1cnccc1Cl)N1CCN(Cc2ccc3c(c2)OC(F)(F)O3)CC1 — concentration (culture medium without cells; 100 nM, 1 h): 92.9 ± 2.1 nM
N#C/N=C1\SCCN1Cc1ccc(Cl)nc1 — concentration (soil; 0 days, nominal 0.12): 0.06 mg/kg dry soil
Cc1c(C(=O)O)ccc2c3n(nc12)[C@@H]1[C@H](C3)N(CC2CC2)[C@@]2(C(=O)Nc3cc(Cl)ccc32)[C@H]1c1cccc(Cl)c1F — concentration (Abcb1a-/- Abcg2-/- Rag1-/- mice, normal brain; oral, 2 mg/kg, 24 h): 227 ± 86 nM
O=C(Nc1cccnn1)N1CCC(=Cc2cccc(Oc3ccc(C(F)(F)F)cn3)c2)CC1 — concentration (culture medium without cells; 100 nM, 0 h): 60.7 ± 3.7 nM

Some of these lines once more:
CN(C(=O)n1cnc(-c2ccc[n+]([O-])c2)c1)C1CCCCC1 — concentration (Wistar rat, medulla oblongata; oral, 10 mg/kg, 4 h, single dose): 114 ± 35.8 ng/g
